Assay results from different studies.
Values joined by “and” are separate records of one study, mostly repeats; a detail may differ. Numbers after ± are the reported error.
MAPK8: Mitogen-activated protein kinase 8 (MAPK8, Homo sapiens, UniProt P45983)

SMILES	tested on	test	test system	setting	scale	endpoint	value
CCCc1ccc(C(=O)N2c3ccc(F)cc3[C@@H](Nc3ccccc3)C[C@H]2C)cc1	Ecdysone receptor (Aedes albopictus, UniProt Q9U3Y4)	ligand binding, inhibitor	intact cells	with: [3H]ponasterone A	direction not given	pIC50 Z-score	0.66
CCCCCC(O)/C=C/C=O (stereo not drawn)	26S proteasome regulatory subunit 10B (PSMC6, Homo sapiens, UniProt P62333)	acylphosphate-ATP probe SILAC-ABPP	ZAK-transfected HEK293T	100 µM, with: acylphosphate-ATP probe	relative to: DMSO over compound-treated	probe labelling ratio	0.64
CCC1(CC)C(=O)N(c2cc(C(=O)OC)cc(C(=O)N3CCN(Cc4ccc(Br)cc4)CC3)c2)C1=O	Dipeptidyl peptidase 8 (Homo sapiens, UniProt Q6V1X1)	inhibitor	–	with: GP-AMC substrate	relative to: Ki' DPP9 over Ki' DPP8	selectivity ratio	5
COC(=O)[C@]1(Cc2ccccc2)C=C(C(=O)OC(C)(C)C)C(=O)CC1	MAPK8	D-peptide binding, inhibitor, FP peptide displacement	–	3.906 µM	lower is stronger displacement	fraction bound	0.76
COc1ccccc1-c1ccncc1C(=O)Nc1nnc(OCc2ccc(Cl)cc2)s1	Bifunctional 3'-5' exonuclease/ATP-dependent helicase WRN, residues 500-946 (WRN, Homo sapiens, UniProt Q14191)	ATPase activity, ADP-Glo	–	0.24 µM	relative to: 0 µM cpd	remaining activity	99%
COC1CN([C@H]2CC[C@H]([C@@]3(C)Oc4c(Cl)cc(C(=O)NCc5c(SC)cc(C)[nH]c5=O)c(C)c4O3)CC2)C1	–	RNA-seq, measured: BMP2	human, whole blood	dose not given, 24 h	relative to: pretreatment baseline	log2 fold change	5.86
CC(=O)N[C@H]1[C@H]([C@H](O)[C@H](O)CNC(=O)c2ccc(-c3ccccc3)cc2)O[C@@](OCc2cccc(Cl)c2Cl)(C(=O)O)C[C@@H]1O	B-cell receptor CD22 (CD22, Homo sapiens, UniProt P20273)	ITC	–	–	–	ΔG	-8.94 ± 0.08 kcal/mol
CC(C)C[C@@H]1NC(=O)[C@H](Cc2ccccc2)NC(=O)CSC[C@@H](C(=O)NCC(N)=O)NC(=O)[C@H](C(C)C)NC(=O)[C@H](Cc2ccccc2)NC(=O)[C@H](Cc2ccc(O)cc2)NC(=O)[C@H](C(C)C)NC(=O)[C@H](CC(=O)O)NC(=O)[C@H](Cc2ccccc2)NC(=O)[C@H](CCCNC(=N)N)NC(=O)[C@H](Cc2ccccc2)N(C)C(=O)[C@H](C)NC(=O)[C@H](Cc2ccccc2)NC(=O)[C@H](C(C)C)NC1=O	Stimulator of interferon genes protein (STING1, Homo sapiens, UniProt Q86WV6, H232R)	thermal stability, DSF	–	50 µM	–	ΔTm	0.1 °C
O=C1C[C@H](c2nc(-c3ccc(F)c4cn[nH]c34)no2)CCCN1c1ccc(F)cc1 (racemic)	Cannabinoid receptor 2 (CNR2, Homo sapiens, UniProt P34972)	agonist, GloSensor cAMP	CHO expressing CB2	10 µM	–	cAMP inhibition	76% and 71.4% and 66.9%
COC(=O)[C@@]1(C)C=C(C(=O)OC(C)(C)C)C(=O)CC1	MAPK8	D-peptide binding, inhibitor, FP peptide displacement	–	7.812 µM	lower is stronger displacement	fraction bound	0.883
Oc1ccc(/C=C/c2cc(O)cc(O)c2)cc1	O-methyltransferase (Sorghum bicolor, UniProt A0A1B6PFV1, W279A)	isothermal titration calorimetry	–	W279A mutant, with: saturating sinefungin	–	cooperativity factor	1.2
CC[C@H](C)[C@H](NC(=O)[C@@H](NC(=O)[C@@H](NC(=O)[C@@H](NC(=O)[C@H](CCCNC(=N)N)NC(=O)[C@H](CCC(=O)O)NC(=O)[C@H](CCC(=O)O)NC(=O)[C@H](C)NC(=O)[C@H](CCC(=O)O)NC(=O)CNC(=O)[C@H](C)NC(=O)CN)C(C)C)C(C)C)C(C)C)C(=O)N[C@@H](CC(=O)O)C(=O)N[C@@H](CC(=O)O)C(=O)N[C@@H](CC(=O)O)C(=O)N[C@@H](CCC(=O)O)C(=O)N[C@@H](CC(=O)O)C(=O)N[C@@H](CC(=O)O)C(=O)N[C@@H](CC(=O)O)C(=O)N[C@@H](C)C(=O)N[C@@H](CCC(=O)O)C(=O)N[C@@H](CC(N)=O)C(=O)N[C@@H](CO)C(=O)N[C@@H](CO)C(=O)N[C@@H](CO)C(=O)N[C@@H](CCCNC(=N)N)C(=O)N[C@@H](Cc1ccc(O)cc1)C(=O)O	Small ubiquitin-related modifier 2, N-terminally truncated (Homo sapiens, UniProt P61956, C48A)	binding, ITC	Tris buffer	pH 7.4, ΔN-SUMO2	–	-TΔS	-9.77 ± 0.22 kcal/mol
Nc1ccn([C@@H]2O[C@H](COP(=O)(O)OP(=O)(O)OP(=O)(O)O)[C@@H](O)[C@@H]2O)c(=O)n1	Genome polyprotein, NS5B (Hepatitis C virus genotype 1b, UniProt Q9WMX2)	nucleotide incorporation, substrate	–	–	–	Vmax	0.72 fraction per time
Cc1cn(CC(=O)N(CC(=O)N[C@H]2CCC[C@@H]2N(CC(=O)N[C@H]2COC[C@@H]2N(CC(=O)N[C@H]2COC[C@@H]2N(CC(=O)N[C@H]2COC[C@@H]2N(CC(=O)NCCOCCOCC(N)=O)C(=O)Cn2cnc3c(N)ncnc32)C(=O)Cn2cc(C)c(=O)[nH]c2=O)C(=O)Cn2cnc3c(N)ncnc32)C(=O)Cn2cnc3c(=O)[nH]c(N)nc32)[C@H]2CCC[C@@H]2NC(=O)CN(C(=O)Cn2cnc3c(=O)[nH]c(N)nc32)[C@H]2CCC[C@@H]2NC(=O)CN(C(=O)Cn2cc(C)c(=O)[nH]c2=O)[C@H]2COC[C@@H]2NC(=O)CN(C(=O)Cn2cnc3c(N)ncnc32)[C@H]2COC[C@@H]2NC(=O)CN(C(=O)Cn2cnc3c(=O)[nH]c(N)nc32)[C@H]2COC[C@@H]2N)c(=O)[nH]c1=O	complementary RNA	duplex formation, UV melting curve fit	PBS	1 µM, fit parameter α 0.5	–	Tm	78 ± 0.3 °C
Cc1cc(=O)oc2cc(NC(=O)CCCCCCCC(=O)NO)ccc12	Histone deacetylase 8 (HDAC8, Homo sapiens, UniProt Q9BY41)	ITC	Tris-HCl buffer	concentration not given, 293 K	–	binding stoichiometry	0.9

A few entries again:
SMILES	tested on	test	test system	setting	scale	endpoint	value
CC(=O)N[C@H]1[C@H]([C@H](O)[C@H](O)CNC(=O)c2ccc(-c3ccccc3)cc2)O[C@@](OCc2cccc(Cl)c2Cl)(C(=O)O)C[C@@H]1O	B-cell receptor CD22 (CD22, Homo sapiens, UniProt P20273)	ITC	–	–	–	ΔG	-8.94 ± 0.08 kcal/mol
CC(C)C[C@@H]1NC(=O)[C@H](Cc2ccccc2)NC(=O)CSC[C@@H](C(=O)NCC(N)=O)NC(=O)[C@H](C(C)C)NC(=O)[C@H](Cc2ccccc2)NC(=O)[C@H](Cc2ccc(O)cc2)NC(=O)[C@H](C(C)C)NC(=O)[C@H](CC(=O)O)NC(=O)[C@H](Cc2ccccc2)NC(=O)[C@H](CCCNC(=N)N)NC(=O)[C@H](Cc2ccccc2)N(C)C(=O)[C@H](C)NC(=O)[C@H](Cc2ccccc2)NC(=O)[C@H](C(C)C)NC1=O	Stimulator of interferon genes protein (STING1, Homo sapiens, UniProt Q86WV6, H232R)	thermal stability, DSF	–	50 µM	–	ΔTm	0.1 °C
